Published values collected from several papers.
Every numbered part comes from another study and shows a few of its results, in no order. Changes are numbered by the printed parent chain.

Series 1
Target: Interferon regulatory factor 5, full length, phosphomimetic (IRF5, Homo sapiens, UniProt Q13568-2, residues 1-514, S451D/S453D/S456D/S462D)
Method: protein-binding microarray
Molecule type: double-stranded DNA, one strand shown
Matrix: in vitro
Concentration: 940 nM top
Setting: 60-bp whole probe
Together with: salmon DNA 0.4 mg/ml
Reference: random background probes
Reading: higher = stronger binding
Shared flanks, not repeated: GCCTAGCAC … GTCTTGATTCGCTTGACGCTGCTG
For `GACGATTTCAGTGTCGAGACGTGCTAG`, “fitted relative affinity” read 0.318 z-score.
For `TTACCTCTCACGCATCTGAAAGTGCTA`, “fitted relative affinity” read 1.1 z-score.
Under “fitted relative affinity”, `GCCGAACTGAGACTGGAGACGTGCTAG` is recorded as -0.416 z-score.
For `TTAGATTTCAGTCTCGATTGGTGCTAG`, “fitted relative affinity” read 4.05 z-score.
`TTAGTTTTCCTTATCCTTTAGTGCTAG` — result for “fitted relative affinity”: 2.8 z-score.
`TTAGGTTTCCTTATCCTTTTGTGCTAG`: “fitted relative affinity” 1.88 z-score.

Series 2
Target: Fragile X messenger ribonucleoprotein 1, C-terminal low-complexity region (Fmr1, Mus musculus, UniProt P35922)
Method: RNA Bind-n-Seq
Molecule type: RNA
Matrix: in vitro
Concentration: 200 nM
Setting: whole 134-nt RNA, ends assumed
Together with: 150 mM KCl
Reference: input library
Reading: higher = stronger binding
Shared flanks, not repeated: GGGAGUUCUACAGUCCGACGAUC … UGGAAUUCUCGGGUGUCAAGG
`UGUGCUACACAUCGUAUGUACCGAAUCGGGGAAAAAGGGGAAAAAAAGGGGAAAAAAAGGGGAAAGUAUUAUGUUACGCCGUUCGGAUCU` gave a log2 enrichment of -0.168.
With `UGGGAGGUGGAUUUUGUUUAUUUUUUUAGCUCAUUUCCAGGGGUGGGAAUUUUUUUUUAAGAUGUGUCAUGAAUAAAGUUGUUUUUGAAA` the log2 enrichment was 0.389.
With `UUUGUGAGACAUGUGAAAGGAGGACAUGGUCACAGUCAUGGACAUGGACACGCUCACAGUCAUACACGUGGAAGUCAUGGACAUGGAAGA` the log2 enrichment was -2.41.
`CCUCAAGUCCUGUGCUACACAUCGUAUGUACCGAAUCGGAGGAAAAAGGUGGAAAGUAUUAUGUUACGCCGUUCGGAUCUGCACUUCCAG` gave a log2 enrichment of 0.144.
For `GUCCUGUGCUACACAUCGUAUGUACCGAAUCGGGCCCCCGGCCCCCGGGGCCCCCGGGAAAGUAUUAUGUUACGCCGUUCGGAUCUGCAC`, the log2 enrichment was -0.957.

Series 3
Target: CCNE2, cyclin fold, Cln2 fusion (human)
Method: yeast growth competition, sequencing
Matrix: yeast
Setting: strong parent motif
Reference: not given
Reading: higher = stronger binding
Parent: CDKN1B docking peptide (human); PSACRNLFGPVDH; partner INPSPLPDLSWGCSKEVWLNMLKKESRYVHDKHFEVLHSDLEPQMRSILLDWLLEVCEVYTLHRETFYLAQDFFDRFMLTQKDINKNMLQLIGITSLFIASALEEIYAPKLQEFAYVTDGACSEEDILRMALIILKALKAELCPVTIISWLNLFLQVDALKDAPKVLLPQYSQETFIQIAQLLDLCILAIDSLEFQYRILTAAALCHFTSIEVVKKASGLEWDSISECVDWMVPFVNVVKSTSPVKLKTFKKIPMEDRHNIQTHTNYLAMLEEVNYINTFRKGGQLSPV
`PSACRNLFGPCDH [V11C]`: “normalised enrichment score” 0.864.
`PSACRNLFGPGDH [V11G]` — result for “normalised enrichment score”: 1.3.
`MSACRNLFGPVDH [P1M]`: “normalised enrichment score” 1.33.

Further values, each from its own experiment
The fold induction of `PhoQ, residues 284 288 289 292 302 303 SMMNNA` is reported as 18.5 (PhoP, residues 12 14 15 18 19 AQALL (Escherichia coli, UniProt P23836); Sort-seq, refers to: YFP reporter; E. coli; PhoQ-PhoP variant library, together with: 10 µM Mg2+; reference: high Mg2+ state, higher = stronger signaling).

Excerpt of the above (series 1):
For `TTAGATTTCAGTCTCGATTGGTGCTAG`, “fitted relative affinity” read 4.05 z-score.
`TTAGTTTTCCTTATCCTTTAGTGCTAG` — result for “fitted relative affinity”: 2.8 z-score.
